Measured values collected from several papers.
Numbered parts are unrelated; each lists some results of a single study. Positions count from the first letter of the parent shown.

Series 1
Target: NFE2, bZIP domain (human)
Method: DHFR protein complementation
Sample: yeast
Setting: single substitutions, most at no-binding floor
Reference: wild-type JUN-FOS pair
Direction: higher = stronger binding
Starting sequence: JUN, bZIP domain (human); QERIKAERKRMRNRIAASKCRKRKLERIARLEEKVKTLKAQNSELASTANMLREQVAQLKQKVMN; partner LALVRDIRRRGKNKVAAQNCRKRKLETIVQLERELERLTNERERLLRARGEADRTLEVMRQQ
For `Q55T`, the binding fitness was -1.45 natural log.
With `R30P` the binding fitness was -1.43 natural log.
The binding fitness of `A57V` is reported as -1.42 natural log.
`T48M` gave a binding fitness of -1.49 natural log.
The binding fitness of `E33T` is reported as -1.44 natural log.
`L31F` has a binding fitness of -1.52 natural log.
The binding fitness of `K36T` is reported as -1.46 natural log.
For `K39G`, the binding fitness was -1.47 natural log.
`A46L` has a binding fitness of -1.39 natural log.
The binding fitness of `K39D` is reported as -1.44 natural log.
The binding fitness of `K39Y` is reported as -1.46 natural log.
`A49C` has a binding fitness of -1.38 natural log.
For `I28D`, the binding fitness was -1.5 natural log.
`K39Q` gave a binding fitness of -1.45 natural log.
For `T48V`, the binding fitness was -1.4 natural log.
For `L52M`, the binding fitness was -1.31 natural log.
`Q55A` has a binding fitness of -1.38 natural log.
`T37M` has a binding fitness of -1.45 natural log.
`E32D` gave a binding fitness of -1.35 natural log.

Series 2
Target: ABI1, truncated, D143A, DHFR fusion (Arabidopsis thaliana)
Method: DHFR PCA, deep sequencing
Sample: yeast
Setting: methotrexate growth selection, single substitutions
Together with: (+)-ABA 4.8 µM
Reference: wild-type fitted maximum
Direction: higher = stronger binding
Starting sequence: PYL1, truncated, DHFR fusion (Arabidopsis thaliana); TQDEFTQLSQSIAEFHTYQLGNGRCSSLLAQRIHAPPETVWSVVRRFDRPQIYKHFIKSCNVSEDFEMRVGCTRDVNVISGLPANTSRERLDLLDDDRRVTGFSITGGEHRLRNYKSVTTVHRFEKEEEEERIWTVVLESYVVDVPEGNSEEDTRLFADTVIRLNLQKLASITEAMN; partner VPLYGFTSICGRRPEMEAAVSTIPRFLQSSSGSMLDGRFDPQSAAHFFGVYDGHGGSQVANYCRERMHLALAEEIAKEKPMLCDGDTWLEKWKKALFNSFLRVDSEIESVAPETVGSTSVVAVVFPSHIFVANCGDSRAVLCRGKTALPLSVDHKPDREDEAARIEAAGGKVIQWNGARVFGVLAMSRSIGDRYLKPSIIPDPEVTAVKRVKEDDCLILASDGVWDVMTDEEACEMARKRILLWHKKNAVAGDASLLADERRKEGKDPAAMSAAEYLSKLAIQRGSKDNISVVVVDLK
Under “relative binding score”, `E174R` is recorded as 11.3%.
For `L94P`, “relative binding score” read 7.31%.
`R99Q`: “relative binding score” 59.6%.
For `Q7N`, “relative binding score” read 68.9%.
Under “relative binding score”, `L156T` is recorded as 85.4%.
For `R90V`, “relative binding score” read 56.7%.
For `D92A`, “relative binding score” read 7.25%.
For `K58N`, “relative binding score” read 33.8%.
`L94F` — result for “relative binding score”: 78.8%.

Series 3
Target: Histone acetyltransferase KAT6A, winged helix 2, GST fusion (KAT6A, Homo sapiens, UniProt Q92794, residues 85-181)
Method: protein binding microarray
Molecule type: double-stranded DNA, one strand shown
Sample: in vitro
Tested at: not given
Setting: 8-mer, flanks averaged, mean of 2 arrays, mostly near background
Reference: not given
Direction: higher = stronger binding
Construct (chain): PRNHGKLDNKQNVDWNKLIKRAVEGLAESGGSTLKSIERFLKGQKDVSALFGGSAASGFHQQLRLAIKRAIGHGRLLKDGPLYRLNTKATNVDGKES
For `GAGCACTA`, the E-score was -0.00216.
For `GGCGCCAA`, the E-score was 0.0566.
With `CAGTATGG` the E-score was 0.0907.
`ACTCTACG` has an E-score of -0.046.
`CACGCACG` gave an E-score of -0.0426.
With `ACTGCAGG` the E-score was -0.0284.
For `GCATGTCA`, the E-score was -0.0793.
`ATATTCTC` has an E-score of 0.00596.
`ACTGCACT` gave an E-score of -0.00999.
The E-score of `GAATAATC` is reported as 0.143.
`CTCTCTAC` has an E-score of 0.0302.
`CACGCCAA` has an E-score of 0.14.
With `TGAGCCCA` the E-score was -0.0882.
`CAAAACTG` gave an E-score of 0.00927.
For `AGCTCGCG`, the E-score was 0.258.
With `AAAACCAA` the E-score was -0.00594.
With `GCCCACTA` the E-score was -0.0635.
The E-score of `ACATAGAT` is reported as 0.0377.
The E-score of `ATATGTGC` is reported as -0.1.
The E-score of `CCAATTCG` is reported as -0.0373.

Series 4
Target: Max dimerization protein 1, bHLH-zipper, MAX partner unstated (MXD1, Homo sapiens, UniProt Q05195, residues 56-136)
Method: protein-binding microarray
Molecule type: double-stranded DNA, one strand shown
Sample: in vitro
Tested at: not given
Setting: k-mer, scored over probes, only values ≥0.25
Direction: higher = stronger binding
Residues (chain): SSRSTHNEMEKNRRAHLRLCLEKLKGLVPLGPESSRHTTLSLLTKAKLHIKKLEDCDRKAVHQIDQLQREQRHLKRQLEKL
The E-score of `ACGCATAA` is reported as 0.277.
With `CACGCTCG` the E-score was 0.37.
`GCGCACGC` gave an E-score of 0.362.
The E-score of `CAACGTGG` is reported as 0.427.
The E-score of `GCACGCGA` is reported as 0.313.
For `AGCACGCG`, the E-score was 0.416.
`TCACGTGA` has an E-score of 0.47.
`AGCACGTG` gave an E-score of 0.491.
For `GAGCACGC`, the E-score was 0.419.
With `AAAATGTG` the E-score was 0.313.
`CACACGTG` has an E-score of 0.485.
For `ACACGCAC`, the E-score was 0.336.
`ACACATGT` gave an E-score of 0.467.

Series 5
Target: CCNB2, cyclin fold, Cln2 fusion (human)
Method: yeast growth competition, sequencing
Sample: yeast
Setting: weak parent motif
Reference: not given
Direction: higher = stronger binding
Starting sequence: WEE1 docking peptide (human); CTLRQKLIFSPCS; partner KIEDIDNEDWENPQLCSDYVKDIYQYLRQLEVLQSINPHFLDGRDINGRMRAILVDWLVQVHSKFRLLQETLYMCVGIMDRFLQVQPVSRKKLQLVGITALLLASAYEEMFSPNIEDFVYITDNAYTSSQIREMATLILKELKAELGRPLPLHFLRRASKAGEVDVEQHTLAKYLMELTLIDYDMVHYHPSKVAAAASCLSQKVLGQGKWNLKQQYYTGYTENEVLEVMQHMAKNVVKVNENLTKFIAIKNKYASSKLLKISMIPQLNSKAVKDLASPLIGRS
For `L3A`, “normalised enrichment score” read 0.239.
For `L7A`, “normalised enrichment score” read 0.229.
`S13A`: “normalised enrichment score” 0.689.
For `C1A`, “normalised enrichment score” read 0.661.
`P11A`: “normalised enrichment score” 0.563.
Under “normalised enrichment score”, `T2A` is recorded as 0.682.

Series 6
Target: Interferon regulatory factor 7, full length, phosphomimetic (IRF7, Homo sapiens, UniProt Q92985, residues 1-503, S471D/S472D/S475D/S476D/S477D/S483D/S484D/S487D)
UniProt Q92985, sequence (whole entry, unmodified, looked up): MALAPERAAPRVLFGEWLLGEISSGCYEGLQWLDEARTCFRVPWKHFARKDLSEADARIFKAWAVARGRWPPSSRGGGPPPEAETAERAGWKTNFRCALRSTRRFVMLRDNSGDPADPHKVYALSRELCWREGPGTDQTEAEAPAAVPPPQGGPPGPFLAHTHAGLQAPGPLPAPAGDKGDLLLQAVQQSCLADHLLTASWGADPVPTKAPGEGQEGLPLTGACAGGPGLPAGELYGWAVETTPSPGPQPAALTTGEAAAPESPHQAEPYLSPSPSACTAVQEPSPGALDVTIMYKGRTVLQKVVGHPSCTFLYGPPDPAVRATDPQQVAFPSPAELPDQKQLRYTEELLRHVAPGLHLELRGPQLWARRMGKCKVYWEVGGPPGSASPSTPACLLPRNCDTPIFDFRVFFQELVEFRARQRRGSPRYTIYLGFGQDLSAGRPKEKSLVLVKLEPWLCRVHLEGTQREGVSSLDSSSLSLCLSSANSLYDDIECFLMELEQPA
Method: protein-binding microarray
Molecule type: double-stranded DNA, one strand shown
Sample: in vitro
Tested at: 2200 nM top
Setting: 60-bp whole probe
Together with: salmon DNA 0.4 mg/ml
Reference: random background probes
Direction: higher = stronger binding
Shared flanks, not repeated: GCCTAGCAC … GTCTTGATTCGCTTGACGCTGCTG
Under “fitted relative affinity”, `TTAGGTATCCATTTCCTTTAGTGCTAG` is recorded as 1.65 z-score.
Under “fitted relative affinity”, `TTAGATTCCGGGTATCGATTAGTGCTA` is recorded as 1.11 z-score.
For `TTTTTTATCAATCATTTTCGTGTGCTA`, “fitted relative affinity” read 2.4 z-score.
For `TTAGTTATCAGTATCGATTAGTGCTAG`, “fitted relative affinity” read 0.782 z-score.
`TTAGGACTGCTTAGCCTTTAGTGCTAG`: “fitted relative affinity” -0.624 z-score.
Under “fitted relative affinity”, `GACGATTTCGGTATCGAGACGTGCTAG` is recorded as 3.43 z-score.
`TCAAATTTCCCACTTTCACTGTGCTAG` — result for “fitted relative affinity”: 3.47 z-score.
`GACGGACTGGACTTTCGGGAAGTGCTA`: “fitted relative affinity” 0.736 z-score.
For `TCATTTCTTTACTTCACACTGTGCTAG`, “fitted relative affinity” read 2.32 z-score.
`CGAGATCTCCGAGATGCCTTCGTGCTA` — result for “fitted relative affinity”: 0.18 z-score.
`GTGCCTTTATATACCTGAATGTGCTAG` — result for “fitted relative affinity”: 1.11 z-score.
`GACGGTTTCCTTCTCCGGACGTGCTAG` — result for “fitted relative affinity”: 2.88 z-score.
Under “fitted relative affinity”, `TTAGGTATCCTAGTGCTTTAGTGCTAG` is recorded as 0.158 z-score.
`TTAGGTATCGTTTTCCTTTAGTGCTAG` — result for “fitted relative affinity”: 3.41 z-score.
Under “fitted relative affinity”, `TCAGCTTTCCTTCATGCACTGTGCTAG` is recorded as 1.72 z-score.
`TTAGATATCAGTTTCTATTAGTGCTAG`: “fitted relative affinity” 2.31 z-score.
`GACGGACCGGGTCTCGGGACGTGCTAG`: “fitted relative affinity” -0.752 z-score.
Under “fitted relative affinity”, `TTAGGTTCCGGTTTCGGTTTGTGCTAG` is recorded as 14.1 z-score.
`GACGGTTTCCGGTATCGGGACGTGCTA`: “fitted relative affinity” 2.61 z-score.
For `AACGGTCTCGGTTTCGGGACGTGCTAG`, “fitted relative affinity” read 4.15 z-score.
`TTAGGAGTGGGTCTCGGTTAGTGCTAG` — result for “fitted relative affinity”: -0.303 z-score.
`TTAGGTTTCCTTTGCCTTTAGTGCTAG`: “fitted relative affinity” 1.93 z-score.

Mixed results
The fold induction of `PhoQ, residues 284 288 289 292 302 303 TNSAEL` is reported as 2.59 (PhoP, residues 12 14 15 18 19 AQCLL (Escherichia coli, UniProt P23836); Sort-seq, refers to: YFP reporter; E. coli; PhoQ-PhoP variant library, together with: 10 µM Mg2+; reference: high Mg2+ state, higher = stronger signaling).

A few entries again (series 4):
The E-score of `ACGCATAA` is reported as 0.277.
With `CACGCTCG` the E-score was 0.37.
`GCGCACGC` gave an E-score of 0.362.
The E-score of `CAACGTGG` is reported as 0.427.
The E-score of `GCACGCGA` is reported as 0.313.
For `AGCACGCG`, the E-score was 0.416.
`TCACGTGA` has an E-score of 0.47.
`AGCACGTG` gave an E-score of 0.491.
For `GAGCACGC`, the E-score was 0.419.
With `AAAATGTG` the E-score was 0.313.
`CACACGTG` has an E-score of 0.485.
For `ACACGCAC`, the E-score was 0.336.
